Published values of several laboratories.
A part holds a random share of what one study measured. Positions count from the first letter of the parent shown.
Chain of UniProt O14757 (whole entry, looked up): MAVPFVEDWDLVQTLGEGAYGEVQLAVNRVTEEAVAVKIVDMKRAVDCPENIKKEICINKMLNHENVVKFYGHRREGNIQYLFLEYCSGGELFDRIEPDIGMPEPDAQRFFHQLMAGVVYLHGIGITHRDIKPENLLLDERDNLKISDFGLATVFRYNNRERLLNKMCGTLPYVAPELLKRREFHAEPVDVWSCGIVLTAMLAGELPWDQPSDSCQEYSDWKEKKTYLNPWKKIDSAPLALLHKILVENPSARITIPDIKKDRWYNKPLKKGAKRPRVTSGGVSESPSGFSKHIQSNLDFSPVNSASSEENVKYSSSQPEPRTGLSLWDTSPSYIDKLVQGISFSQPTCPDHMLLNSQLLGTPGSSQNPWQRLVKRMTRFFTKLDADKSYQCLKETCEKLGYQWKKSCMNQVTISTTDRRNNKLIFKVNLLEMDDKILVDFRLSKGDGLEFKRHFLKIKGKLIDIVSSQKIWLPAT
Chain of UniProt P50613 (whole entry, looked up): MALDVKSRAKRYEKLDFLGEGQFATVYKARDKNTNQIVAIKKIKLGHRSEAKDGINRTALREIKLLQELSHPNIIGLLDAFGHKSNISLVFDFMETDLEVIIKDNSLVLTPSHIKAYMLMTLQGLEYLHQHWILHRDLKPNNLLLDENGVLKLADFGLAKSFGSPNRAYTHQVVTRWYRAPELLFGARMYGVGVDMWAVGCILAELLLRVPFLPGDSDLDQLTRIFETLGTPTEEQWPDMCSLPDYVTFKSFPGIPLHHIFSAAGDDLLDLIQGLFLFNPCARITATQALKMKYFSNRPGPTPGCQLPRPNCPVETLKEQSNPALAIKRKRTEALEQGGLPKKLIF
Chain of UniProt O95835 (whole entry, looked up): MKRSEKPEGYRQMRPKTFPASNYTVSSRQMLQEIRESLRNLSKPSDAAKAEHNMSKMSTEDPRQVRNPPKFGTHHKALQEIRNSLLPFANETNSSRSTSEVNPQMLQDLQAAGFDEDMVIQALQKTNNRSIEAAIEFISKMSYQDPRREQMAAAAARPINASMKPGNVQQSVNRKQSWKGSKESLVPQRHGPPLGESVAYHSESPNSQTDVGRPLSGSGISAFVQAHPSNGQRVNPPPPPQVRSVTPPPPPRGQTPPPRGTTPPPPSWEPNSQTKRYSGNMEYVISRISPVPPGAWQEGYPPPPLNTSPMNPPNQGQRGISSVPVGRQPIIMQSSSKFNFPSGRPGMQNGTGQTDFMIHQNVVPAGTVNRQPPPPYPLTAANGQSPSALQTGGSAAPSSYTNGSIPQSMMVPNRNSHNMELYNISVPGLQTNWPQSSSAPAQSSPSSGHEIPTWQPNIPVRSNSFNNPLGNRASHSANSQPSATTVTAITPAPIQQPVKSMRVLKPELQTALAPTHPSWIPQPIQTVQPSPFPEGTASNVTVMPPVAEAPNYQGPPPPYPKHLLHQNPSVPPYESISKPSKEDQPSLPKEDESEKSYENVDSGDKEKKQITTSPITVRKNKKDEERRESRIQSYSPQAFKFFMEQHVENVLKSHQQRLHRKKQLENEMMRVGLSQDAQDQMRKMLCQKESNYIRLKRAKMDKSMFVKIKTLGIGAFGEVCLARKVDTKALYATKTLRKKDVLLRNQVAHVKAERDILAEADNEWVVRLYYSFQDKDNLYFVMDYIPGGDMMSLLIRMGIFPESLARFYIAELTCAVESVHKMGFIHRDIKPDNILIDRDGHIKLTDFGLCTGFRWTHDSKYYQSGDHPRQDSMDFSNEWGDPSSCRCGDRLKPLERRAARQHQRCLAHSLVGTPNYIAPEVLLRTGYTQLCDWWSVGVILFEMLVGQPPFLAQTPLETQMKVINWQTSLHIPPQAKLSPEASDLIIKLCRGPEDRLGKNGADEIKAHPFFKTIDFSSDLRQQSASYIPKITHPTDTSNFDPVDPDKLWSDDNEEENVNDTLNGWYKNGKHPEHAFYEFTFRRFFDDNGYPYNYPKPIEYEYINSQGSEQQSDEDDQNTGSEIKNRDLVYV
Chain of UniProt P53667 (whole entry, looked up): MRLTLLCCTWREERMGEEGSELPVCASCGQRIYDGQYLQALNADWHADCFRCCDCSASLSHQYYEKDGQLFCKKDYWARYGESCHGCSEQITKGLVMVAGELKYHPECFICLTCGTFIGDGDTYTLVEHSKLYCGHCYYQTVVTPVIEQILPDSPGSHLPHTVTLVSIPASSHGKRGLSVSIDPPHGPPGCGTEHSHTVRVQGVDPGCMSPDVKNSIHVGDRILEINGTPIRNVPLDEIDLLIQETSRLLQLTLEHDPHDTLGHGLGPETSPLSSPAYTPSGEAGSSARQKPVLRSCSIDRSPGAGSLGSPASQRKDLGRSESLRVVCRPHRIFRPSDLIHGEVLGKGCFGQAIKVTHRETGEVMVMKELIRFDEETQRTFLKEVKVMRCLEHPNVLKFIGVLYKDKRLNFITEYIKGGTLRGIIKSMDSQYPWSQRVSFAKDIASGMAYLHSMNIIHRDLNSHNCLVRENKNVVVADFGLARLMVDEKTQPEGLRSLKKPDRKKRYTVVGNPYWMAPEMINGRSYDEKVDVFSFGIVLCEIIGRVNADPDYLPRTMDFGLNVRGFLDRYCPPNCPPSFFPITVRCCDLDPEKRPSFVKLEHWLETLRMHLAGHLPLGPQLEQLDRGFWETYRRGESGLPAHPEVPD

Block 1 — read-out: enzyme activity; action: inhibitor; tested at: 0.5 µM; relative to: control
Target: Mitogen-activated protein kinase kinase kinase 8 (MAP3K8, Homo sapiens, UniProt P41279)
Chain of UniProt P41279 (whole entry, looked up): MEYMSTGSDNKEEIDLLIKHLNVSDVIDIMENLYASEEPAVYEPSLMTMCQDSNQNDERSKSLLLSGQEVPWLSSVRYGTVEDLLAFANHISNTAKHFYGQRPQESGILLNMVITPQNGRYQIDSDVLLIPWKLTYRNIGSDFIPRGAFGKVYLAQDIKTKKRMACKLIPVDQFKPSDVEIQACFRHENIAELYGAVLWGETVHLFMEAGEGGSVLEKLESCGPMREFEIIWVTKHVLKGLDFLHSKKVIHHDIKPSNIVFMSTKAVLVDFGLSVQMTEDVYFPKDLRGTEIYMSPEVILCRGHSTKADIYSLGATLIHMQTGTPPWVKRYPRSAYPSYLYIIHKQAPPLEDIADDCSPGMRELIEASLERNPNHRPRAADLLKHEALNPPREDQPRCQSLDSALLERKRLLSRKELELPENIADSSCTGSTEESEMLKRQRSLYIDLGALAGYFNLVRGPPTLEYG
`OCC(O)CCON=C1C(c2c(O)[nH]c3ccccc23)=Nc2ccccc21` (centres unmarked) has a remaining activity of 123%.
With `O=C1NC(=O)C(c2cn(CCCn3ccnc3)c3ccccc23)=C1Nc1ccccc1` the remaining activity was 100%.
For `COc1cc2ncnc(Nc3ccc(F)c(Cl)c3)c2cc1OCCCN1CCOCC1`, the remaining activity was 95.7%.
With `Cc1ccc(Nc2nccc(N(C)c3ccc4c(C)n(C)nc4c3)n2)cc1S(N)(=O)=O` the remaining activity was 95.2%.
`O=C(CCCc1ccc(-c2ccccc2F)cc1)Nc1ccc(O)cc1` gave a remaining activity of 101%.
`CCOC(=O)c1c(C)[nH]c(/C=C2\C(=O)Nc3ccccc32)c1C` has a remaining activity of 108%.
`COc1ccc(C(=O)Nc2sc3c(c2C(N)=O)CCCC3)cc1OC` gave a remaining activity of 106%.
`O=C(Nc1cccc(Nc2cc(Nc3cccc(C(F)(F)F)c3)ncn2)c1)C1CC1` gave a remaining activity of 98.4%.
With `NCCNc1ncc(C(N)=O)c(Nc2cccc(C(F)(F)F)c2)n1` the remaining activity was 94.8%.
`Cn1c2ccccc2c2c3c(c4c5ccccc5n(CCC#N)c4c21)CNC3=O` has a remaining activity of 111%.
With `COc1cc2ncnc(Nc3ccc(Oc4ccccc4)cc3)c2cc1OC` the remaining activity was 68.9%.
With `CO[C@H]1C[C@@H]2CC[C@@H](C)[C@@](O)(O2)C(=O)C(=O)N2CCCC[C@H]2C(=O)O[C@H]([C@H](C)C[C@@H]2CC[C@@H](O)[C@H](OC)C2)CC(=O)[C@H](C)/C=C(\C)[C@@H](O)[C@@H](OC)C(=O)[C@H](C)C[C@H](C)/C=C/C=C/C=C/1C` the remaining activity was 99.8%.
For `Nc1[nH]nc2nc3ccccc3nc12`, the remaining activity was 81.3%.
`Nc1ncnc2n[nH]c(Nc3ccc(F)cc3)c12` has a remaining activity of 99.7%.
`Cc1nc(-c2ccccc2)c(-c2ccncc2)o1` has a remaining activity of 89.9%.

Block 2 — target: CCNA1, cyclin fold, Cln2 fusion (human); method: yeast growth competition, sequencing; matrix: yeast; setting: weak parent motif; relative to: not given; direction: higher = stronger binding
Starting sequence: CDC25A docking peptide (human); PPHRRRLLFACSP
For `R4Q`, “normalised enrichment score” read 0.407.
For `A10T`, “normalised enrichment score” read 0.355.
Under “normalised enrichment score”, `P2L` is recorded as 0.0791.
Under “normalised enrichment score”, `F9H` is recorded as 0.237.
`R6Q`: “normalised enrichment score” 0.456.
Under “normalised enrichment score”, `H3D` is recorded as 0.41.
`A10V` — result for “normalised enrichment score”: -0.00296.
For `R5Q`, “normalised enrichment score” read 0.349.

Block 3 — target: CRIPT, C-terminal peptide; method: DHFR complementation, deep sequencing; matrix: yeast; relative to: wild type; direction: higher = weaker binding
Setting: single substitutions, model-inferred values
Starting sequence: ERBIN, PDZ domain 1 (human); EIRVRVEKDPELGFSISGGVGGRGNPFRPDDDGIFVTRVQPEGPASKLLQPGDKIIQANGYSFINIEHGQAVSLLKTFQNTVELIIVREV; partner TKNYKQTSV
`R3S` — result for “binding free energy change”: -0.151 kcal/mol.
Under “binding free energy change”, `F35D` is recorded as 0.784 kcal/mol.
`P29S` — result for “binding free energy change”: 0.161 kcal/mol.
`R3C`: “binding free energy change” -0.226 kcal/mol.
Under “binding free energy change”, `I34E` is recorded as 0.675 kcal/mol.
`H68F`: “binding free energy change” 1.04 kcal/mol.
`H68R`: “binding free energy change” 1.51 kcal/mol.
`K76N`: “binding free energy change” 0.719 kcal/mol.

Block 4 — read-out: cell-free assay; method: competition with immobilised ligand; tested at: 1 µM
SMILES: O=C1CCc2cc(Nc3cc(OC4CCOCC4)c([N+](=O)[O-])cc3Cl)ccc2N1
For LIM domain kinase 1 (LIMK1, Homo sapiens, UniProt P53667): remaining binding read 100%.
MAP3K5 (Homo sapiens, UniProt Q99683) — remaining binding: 84%.
For PRKACA (Homo sapiens, UniProt P17612): remaining binding read 96%.
LATS1 (Homo sapiens, UniProt O95835) — remaining binding: 81%.
For CHEK1 (Homo sapiens, UniProt O14757): remaining binding read 95%.
For LRRK2 (Homo sapiens, UniProt Q5S007, G2019S): remaining binding read 100%.
For CDK7 (Homo sapiens, UniProt P50613): remaining binding read 86%.

For quick reference, copied from above (block 4):
MAP3K5 (Homo sapiens, UniProt Q99683) — remaining binding: 84%.
For PRKACA (Homo sapiens, UniProt P17612): remaining binding read 96%.
LATS1 (Homo sapiens, UniProt O95835) — remaining binding: 81%.
